Assay results collected from several papers.
Compare with care: the assays were run in different laboratories. Numbers after ± are the reported error.

Structure (SMILES)	target or system	test	system	setting	how to read	endpoint	result
CC(C)(C)c1cc(-c2ccc3cccnc3n2)nc(-c2ccc3cccnc3n2)c1.[Cl-].[Cl-].[Ru+2].c1ccc2cc3nc4c5cccnc5c5ncccc5c4nc3cc2c1	A-375	photocytotoxicity, resazurin	–	visible light 400-700 nm, 20 mW, 100 J/cm2	–	EC50	1940 nM
Cc1ncsc1-c1ccc(C(C)NC(=O)C2CC(O)CN2C(=O)C(NC(=O)CCCCCCCCCCN2CCCC(Nc3ncc(Cl)c(Nc4ccccc4S(=O)(=O)C(C)C)n3)C2)C(C)(C)C)cc1 (stereo not drawn)	22Rv1	RNA-seq, item: PWWP2B mRNA	–	concentration not given	reference: DMSO	log2 fold change	-1.03
O=C(N/N=C/c1ccc(C[n+]2ccccc2)cc1)C(=O)N/N=C/c1ccc(C[n+]2ccccc2)cc1	hp2 hairpin duplex DNA	FRET melting	–	1 µM, with: ds26 10 µM	–	ΔTm	0.7 ± 0.2 °C
Nc1ncc(-c2cc(-c3cnn(CC(F)(F)F)c3)ncc2F)nc1C(=O)NC1CNCC(F)C1 (stereo not drawn)	RIPK4	KINOMEscan	–	1 µM	reference: control	remaining binding	3.2%
O=C(N/N=C/c1cc[n+](Cc2ccccc2)c2ccccc12)N/N=C/c1cc[n+](Cc2ccccc2)c2ccccc12	hp2 hairpin duplex DNA	FRET melting	–	1 µM	–	ΔTm	1.9 ± 0.6 °C
O=C(CSc1cccc[n+]1[O-])c1ccccc1Br	Mus musculus	gene silencing, high-content imaging	LDR reporter GFP cells	30 h, retest run 1	–	Emax	126%
C=CC(=O)N1[C@@H](c2ccc3c(c2)OCO3)c2[nH]c3ccccc3c2C[C@H]1C(=O)N1CCN(C)CC1	CCNE1 WT-3xFLAG:CDK2 complex	co-IP TMT proteomics, item: KPNB1	HEK-293T	20 µM, 6 h	reference: DMSO	log2 fold change	-0.42
COC1OC(C)C(O)C(OC2OC(C)C(O)C(OC3OC(C)C(O)C(OC4OC(C)C(O)C(OC5OC(C)C(O)C(OC6OC(C)C(O)C(OC7OC(C)C(O)C(OS(=O)(=O)O)C7OS(=O)(=O)O)C6OS(=O)(=O)O)C5OS(=O)(=O)O)C4OS(=O)(=O)O)C3OS(=O)(=O)O)C2OS(=O)(=O)O)C1OS(=O)(=O)O (stereo not drawn)	–	–	human plasma	128 µg/mL	reference: control	prothrombin time prolongation	0.99 fold
C=CC(=O)Nc1cccc(Cn2ncc3cnc(Nc4cnn(CCOC)c4)nc32)c1	GSK3B human	binding, KINOMEscan	–	100 nM	lower = stronger binding	percent of control	100%
O=C(N/N=C/c1ccc2c(ccc[n+]2Cc2ccccc2)c1)N/N=C/c1ccc2c(ccc[n+]2Cc2ccccc2)c1	hp2 hairpin duplex DNA	FRET melting	–	1 µM, with: ds26 10 µM	–	ΔTm	1.2 ± 0.3 °C
Oc1c(/N=N/c2ccccn2)ccc2ccccc12	Mus musculus	gene silencing, high-content imaging	LDR reporter GFP cells	30 h, retest, mean of two runs	–	Emax	128%
C[n+]1cccc2cc(/C=N/NC(=O)c3ccc4ccc(C(=O)N/N=C/c5ccc6c(ccc[n+]6C)c5)nc4n3)ccc21	MYC parallel G4 DNA	FRET melting	–	1 µM, DNA 0.2 µM, with: duplex DNA competitor 10 µM	–	ΔTm	8.5 ± 0.1 °C
CNS(=O)(=O)Nc1nccc(Cc2c(C)c3ccc(Oc4ncccc4F)cc3oc2=O)c1F	CHP-212	cell viability	–	7 days	–	IC50	1.02 nM
O=C(N/N=C/c1cc[n+](CC2CC2)c2ccccc12)c1ccc2ccc3ccc(C(=O)N/N=C/c4cc[n+](CC5CC5)c5ccccc45)nc3c2n1	MYC parallel G4 DNA	FRET melting	–	1 µM, DNA 0.2 µM	–	ΔTm	14.6 ± 0.3 °C
COC1CN([C@H]2CC[C@H]([C@@]3(C)Oc4c(Cl)cc(C(=O)NCc5c(SC)cc(C)[nH]c5=O)c(C)c4O3)CC2)C1	–	RNA-seq, item: UPP1	human, whole blood	dose not given, 24 h	reference: pretreatment baseline	log2 fold change	1.14

Some of these lines once more:
Structure (SMILES)	target or system	test	system	setting	how to read	endpoint	result
CC(C)(C)c1cc(-c2ccc3cccnc3n2)nc(-c2ccc3cccnc3n2)c1.[Cl-].[Cl-].[Ru+2].c1ccc2cc3nc4c5cccnc5c5ncccc5c4nc3cc2c1	A-375	photocytotoxicity, resazurin	–	visible light 400-700 nm, 20 mW, 100 J/cm2	–	EC50	1940 nM
